Experimental data pooled from the literature.
Several values in a cell are separate wells, animals, samples, runs or records.
PPO3: PPO3 (Agaricus bisporus, UniProt C7FF04)
CA9: Carbonic anhydrase 9 (CA9, Homo sapiens, UniProt Q16790)
PIK3CD: Phosphatidylinositol 4,5-bisphosphate 3-kinase catalytic subunit delta isoform (PIK3CD, Homo sapiens, UniProt O00329)
Chain of UniProt O00329 (whole entry, looked up): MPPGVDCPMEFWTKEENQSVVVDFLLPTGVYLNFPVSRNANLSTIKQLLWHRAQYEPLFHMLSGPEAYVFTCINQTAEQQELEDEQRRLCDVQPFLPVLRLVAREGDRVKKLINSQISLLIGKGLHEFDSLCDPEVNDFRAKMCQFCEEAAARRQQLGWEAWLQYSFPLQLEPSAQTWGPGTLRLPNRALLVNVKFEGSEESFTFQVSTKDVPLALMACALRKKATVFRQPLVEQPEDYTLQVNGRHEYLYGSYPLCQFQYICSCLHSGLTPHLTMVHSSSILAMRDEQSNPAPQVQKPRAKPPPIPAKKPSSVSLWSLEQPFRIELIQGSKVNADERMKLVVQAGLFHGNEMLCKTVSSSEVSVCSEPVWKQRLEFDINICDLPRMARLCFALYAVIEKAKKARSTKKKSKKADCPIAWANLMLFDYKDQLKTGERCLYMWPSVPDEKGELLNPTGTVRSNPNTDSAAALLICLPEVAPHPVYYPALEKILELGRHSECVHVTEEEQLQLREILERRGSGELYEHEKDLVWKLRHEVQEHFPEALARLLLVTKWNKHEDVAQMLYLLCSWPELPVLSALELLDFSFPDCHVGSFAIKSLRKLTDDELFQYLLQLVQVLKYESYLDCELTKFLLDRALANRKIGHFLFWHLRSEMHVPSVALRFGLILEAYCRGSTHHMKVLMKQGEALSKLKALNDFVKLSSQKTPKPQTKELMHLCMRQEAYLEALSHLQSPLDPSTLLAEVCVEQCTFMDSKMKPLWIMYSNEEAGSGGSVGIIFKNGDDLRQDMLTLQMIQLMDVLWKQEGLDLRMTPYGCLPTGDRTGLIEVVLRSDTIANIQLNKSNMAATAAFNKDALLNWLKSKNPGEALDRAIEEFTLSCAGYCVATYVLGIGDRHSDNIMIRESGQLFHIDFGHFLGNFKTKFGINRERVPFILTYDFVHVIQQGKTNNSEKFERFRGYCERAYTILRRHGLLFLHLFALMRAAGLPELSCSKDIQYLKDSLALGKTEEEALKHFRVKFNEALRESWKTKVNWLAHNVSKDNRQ
PIK3CG: Phosphatidylinositol 4,5-bisphosphate 3-kinase catalytic subunit gamma isoform (PIK3CG, Homo sapiens, UniProt P48736)
rep main protease: Replicase polyprotein 1ab, main protease (rep, Porcine epidemic diarrhea virus, UniProt P0C6Y4)
CHEK1: Serine/threonine-protein kinase Chk1 (CHEK1, Homo sapiens, UniProt O14757)
Chain of UniProt O14757 (whole entry, looked up): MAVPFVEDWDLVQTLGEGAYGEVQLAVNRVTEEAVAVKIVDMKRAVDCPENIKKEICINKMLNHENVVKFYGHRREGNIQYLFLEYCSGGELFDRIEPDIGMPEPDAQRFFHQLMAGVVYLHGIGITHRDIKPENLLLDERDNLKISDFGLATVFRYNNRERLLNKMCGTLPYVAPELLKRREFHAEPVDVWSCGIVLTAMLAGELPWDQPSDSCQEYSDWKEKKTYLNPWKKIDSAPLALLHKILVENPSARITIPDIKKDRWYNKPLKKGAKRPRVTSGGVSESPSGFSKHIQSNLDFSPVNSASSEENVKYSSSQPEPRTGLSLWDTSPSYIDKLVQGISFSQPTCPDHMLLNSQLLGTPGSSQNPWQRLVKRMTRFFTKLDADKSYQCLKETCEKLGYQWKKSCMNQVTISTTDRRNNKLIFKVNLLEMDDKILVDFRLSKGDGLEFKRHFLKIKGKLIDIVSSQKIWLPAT
FLT3 ITD: Receptor-type tyrosine-protein kinase FLT3 (FLT3, Homo sapiens, UniProt P36888, ITD)
DYRK1A: Dual specificity tyrosine-phosphorylation-regulated kinase 1A (DYRK1A, Homo sapiens, UniProt Q13627)
PIK3CA: Phosphatidylinositol 4,5-bisphosphate 3-kinase catalytic subunit alpha isoform (PIK3CA, Homo sapiens, UniProt P42336)
Chain of UniProt P42336 (whole entry, looked up): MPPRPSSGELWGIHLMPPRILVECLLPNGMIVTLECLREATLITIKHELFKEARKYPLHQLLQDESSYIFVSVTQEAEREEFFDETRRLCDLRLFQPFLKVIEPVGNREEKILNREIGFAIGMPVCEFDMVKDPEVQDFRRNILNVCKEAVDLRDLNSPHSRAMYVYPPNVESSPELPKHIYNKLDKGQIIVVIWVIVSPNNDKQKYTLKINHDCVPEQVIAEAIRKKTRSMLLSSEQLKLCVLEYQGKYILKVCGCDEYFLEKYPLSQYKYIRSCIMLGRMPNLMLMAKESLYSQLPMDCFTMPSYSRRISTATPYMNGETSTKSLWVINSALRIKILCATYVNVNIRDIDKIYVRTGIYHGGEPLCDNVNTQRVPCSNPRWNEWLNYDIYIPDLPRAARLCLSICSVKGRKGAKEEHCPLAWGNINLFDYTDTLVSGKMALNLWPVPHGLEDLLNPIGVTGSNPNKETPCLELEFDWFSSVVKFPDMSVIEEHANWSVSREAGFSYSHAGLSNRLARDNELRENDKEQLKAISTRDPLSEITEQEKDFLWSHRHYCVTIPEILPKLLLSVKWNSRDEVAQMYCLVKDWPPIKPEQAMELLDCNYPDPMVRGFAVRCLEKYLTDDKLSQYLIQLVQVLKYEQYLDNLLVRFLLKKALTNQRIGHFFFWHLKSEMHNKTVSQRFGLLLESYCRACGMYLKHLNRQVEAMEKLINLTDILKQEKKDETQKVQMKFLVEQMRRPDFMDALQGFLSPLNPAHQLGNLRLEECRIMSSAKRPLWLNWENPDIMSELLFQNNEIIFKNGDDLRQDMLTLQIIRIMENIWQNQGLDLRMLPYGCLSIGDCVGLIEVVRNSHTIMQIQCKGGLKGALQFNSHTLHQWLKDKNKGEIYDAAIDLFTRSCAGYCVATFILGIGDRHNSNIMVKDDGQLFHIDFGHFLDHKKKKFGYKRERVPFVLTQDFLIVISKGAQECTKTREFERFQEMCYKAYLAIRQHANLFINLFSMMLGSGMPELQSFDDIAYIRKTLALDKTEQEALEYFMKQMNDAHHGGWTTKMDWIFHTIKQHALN
AMY2: Pancreatic alpha-amylase (AMY2, Sus scrofa, UniProt P00690)
Chain of UniProt P00690 (whole entry, looked up): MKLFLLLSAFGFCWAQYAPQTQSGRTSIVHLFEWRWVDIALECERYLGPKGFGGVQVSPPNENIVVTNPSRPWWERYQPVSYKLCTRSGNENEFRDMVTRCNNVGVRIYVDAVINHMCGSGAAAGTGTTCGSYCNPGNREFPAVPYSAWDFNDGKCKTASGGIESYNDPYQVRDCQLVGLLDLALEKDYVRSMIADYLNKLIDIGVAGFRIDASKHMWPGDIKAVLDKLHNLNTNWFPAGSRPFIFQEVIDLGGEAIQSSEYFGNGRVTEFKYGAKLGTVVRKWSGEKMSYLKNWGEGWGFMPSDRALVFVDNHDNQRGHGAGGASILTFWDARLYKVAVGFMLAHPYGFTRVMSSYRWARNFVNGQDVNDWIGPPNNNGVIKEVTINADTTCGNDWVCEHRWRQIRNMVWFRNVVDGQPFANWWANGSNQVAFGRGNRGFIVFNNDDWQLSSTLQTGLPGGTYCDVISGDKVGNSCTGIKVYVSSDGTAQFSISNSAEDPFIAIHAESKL
Chain of UniProt P08684 (whole entry, looked up): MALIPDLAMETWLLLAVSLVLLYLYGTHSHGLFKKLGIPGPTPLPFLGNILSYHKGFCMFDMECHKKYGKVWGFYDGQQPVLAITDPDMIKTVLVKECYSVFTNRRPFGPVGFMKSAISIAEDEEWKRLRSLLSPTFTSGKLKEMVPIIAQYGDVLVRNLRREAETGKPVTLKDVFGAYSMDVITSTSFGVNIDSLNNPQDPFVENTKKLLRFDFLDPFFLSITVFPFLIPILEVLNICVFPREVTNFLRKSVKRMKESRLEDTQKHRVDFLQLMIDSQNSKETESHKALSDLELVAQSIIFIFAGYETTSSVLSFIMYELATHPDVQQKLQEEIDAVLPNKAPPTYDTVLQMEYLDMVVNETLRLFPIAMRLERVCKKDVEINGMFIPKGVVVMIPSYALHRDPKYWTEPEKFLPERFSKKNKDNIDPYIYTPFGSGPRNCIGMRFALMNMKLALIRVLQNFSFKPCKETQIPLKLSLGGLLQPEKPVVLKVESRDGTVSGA
Chain of UniProt Q63707 (whole entry, looked up): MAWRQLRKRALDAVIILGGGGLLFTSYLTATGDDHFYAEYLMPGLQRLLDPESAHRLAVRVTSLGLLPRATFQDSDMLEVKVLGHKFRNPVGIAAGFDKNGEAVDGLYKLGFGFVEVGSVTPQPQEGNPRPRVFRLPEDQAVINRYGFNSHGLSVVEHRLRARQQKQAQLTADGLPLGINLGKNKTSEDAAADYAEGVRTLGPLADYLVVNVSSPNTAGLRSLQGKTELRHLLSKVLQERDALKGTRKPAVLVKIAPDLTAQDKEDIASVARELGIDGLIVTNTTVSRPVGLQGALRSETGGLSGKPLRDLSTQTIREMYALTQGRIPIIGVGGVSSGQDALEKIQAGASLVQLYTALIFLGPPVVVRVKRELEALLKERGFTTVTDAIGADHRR

SMILES | target | test | system | conditions | IC50
O=C(CSc1nc2ccccc2cc1C=Nn1c(S)nnc1-c1ccccc1)Nc1ccccc1Cl | PPO3 | enzyme activity, inhibitor |  |  | 28.2 µM
Cc1cc(S(N)(=O)=O)ccc1CNC(=O)N1CCN(CC(=O)NC2CCC(C)CC2)CC1 (stereo not drawn) | CA9 | enzyme activity, inhibitor |  |  | 2.39 µM
CN(C)C(=O)c1cc2cnc(Nc3cncc(-c4cccc5c(=O)cc(N6CCOCC6)oc45)c3)nc2n1C1CCCC1 | PIK3CD | enzyme activity, inhibitor, radiometric |  |  | 1.96 µM
Cc1nc(Nc2ccc3c(c2)/C(=C/c2ccccc2C)C(=O)N3C)c2ccccc2n1 | PIK3CG | enzyme activity, inhibitor, ADP detection |  |  | 0.0961 µM
Cc1cc([C@@H](C)Nc2ccccc2C(=O)O)c2nc(N3CCC(F)(F)CC3)c(C#N)c(=O)n2c1 | PIK3C2A (Homo sapiens, UniProt O00443) | enzyme activity, inhibitor, ADP detection |  |  | > 10 µM
O=C(NCc1cc(O)c(O)c(Br)c1)c1ccc(Cl)s1 | rep main protease | enzyme activity, inhibitor, FRET |  |  | 2.29 µM
N#Cc1cnc(NC(=O)Nc2cc(Cl)ccc2OC2CCCC(O)C2O)cn1 (stereo not drawn) | CHEK1 | enzyme activity, inhibitor |  |  | 0.0106 µM
Cc1cc(C(=O)N(CC(=O)Nc2ccccc2F)Cc2ccc(-c3cn(C)nn3)cc2)ccc1S(N)(=O)=O | CA9 | enzyme activity, inhibitor |  |  | 0.0269 µM
CN(C)CCN(C)C(=O)c1ccc(-c2nc3ccc4[nH]ncc4c3c3c2CC(F)(F)CC3)cc1 | FLT3 ITD | enzyme activity, inhibitor |  |  | > 1 µM
CC1=NOC(CNC(=O)c2cnc3c(c(C)nn3C)c2Cl)C1 (stereo not drawn) | 60 kDa heat shock protein, mitochondrial (Homo sapiens, UniProt P10809) | ATPase activity, inhibitor |  |  | > 250 µM
c1cnn2ncc(-c3ccnc(N4CCNCC4)n3)c2c1 | DYRK1A | cell-free assay, TR-FRET |  |  | 0.589 µM
CCC(C(=O)N1C(=O)C(=Nc2ccc(Cl)cc2Br)c2ccccc21)c1ccccc1 (stereo not drawn) | PIK3CD | enzyme activity, inhibitor, ADP detection |  |  | 0.721 µM
CN(C)C(=O)c1cc2cnc(Nc3ccc4c(=O)cc(N5CCNCC5)oc4c3)nc2n1C1CCCC1 | Cyclin-dependent kinase 4, with cyclin D1 (CDK4, Homo sapiens, UniProt P11802) | enzyme activity, inhibitor, radiometric |  |  | 0.0041 µM
CNC(=O)c1ccc2c(c1)CC(C)N2Cc1ccoc1C(=O)Nc1ccc(S(N)(=O)=O)cc1 (stereo not drawn) | CA9 | enzyme activity, inhibitor |  |  | 0.02 µM
O=C(CCc1ccc(Cl)cc1)N1C(=O)C(=Nc2ccc(Cl)cc2Br)c2ccccc21 | PIK3CA | enzyme activity, inhibitor, ADP detection |  |  | 0.324 µM
Cc1nc(N(Cc2ccccc2)c2ccc3c(c2)/C(=C/c2ccccc2)C(=O)N3Cc2ccccc2)c2ccccc2n1 (mixture of isomers) | PIK3CG | enzyme activity, inhibitor, ADP detection |  |  | 0.155 µM
COc1cc(N=C2C(=O)N(Cc3ccccc3)c3ccccc32)cc(OC)c1 | PIK3CD | enzyme activity, inhibitor, ADP detection |  |  | 0.057 µM
Cc1nc(SCC(=O)Nc2ccc(S(N)(=O)=O)cc2)[nH]c1Cc1ccc(O)cc1 | CA9 | enzyme activity, inhibitor |  |  | 0.063 µM
c1cnn2ncc(-c3ccnc(N4CCOCC4)n3)c2c1 | DYRK1A | cell-free assay, TR-FRET |  |  | 0.309 µM
COc1cc(-c2ccc3c(c2)Nc2cc(CC(=O)NCc4cccs4)ccc2NC3=O)ccc1[N+](=O)[O-] | CHEK1 | enzyme activity, inhibitor |  |  | 0.00526 µM
NNC(=O)C(=O)N1CCOCC1 | ADRB2 (Homo sapiens, UniProt P07550) | calcium signal, antagonist, fluorescence |  |  | 48 µM
O=C1C(=Nc2ccccc2I)c2ccccc2N1Cc1ccc([N+](=O)[O-])cc1 | PIK3CA | enzyme activity, inhibitor, ADP detection |  |  | 0.0346 µM
O=C(CSc1nc2ccccc2cc1C=Nn1c(S)nnc1-c1ccccc1)Nc1cccc(Cl)c1 | PPO3 | enzyme activity, inhibitor |  |  | 33.1 µM
CN(C)CCN(C)c1ccc(Cl)cc1NC(=O)Nc1cnc(C#N)cn1 | CHEK1 | enzyme activity, inhibitor |  |  | 0.0113 µM
O=[N+]([O-])c1ccccc1/C=N/N=C/c1ccccc1[N+](=O)[O-] | AMY2 | enzyme activity, inhibitor |  |  | 338 µM
N#Cc1cnc(NC(=O)Nc2cc(Br)ccc2N2CCCCC2)cn1 | CHEK1 | enzyme activity, inhibitor |  |  | 0.0115 µM

SMILES | target | test | system | conditions | IC50
Cn1nc2c(=O)n(C3CC3)cnc2c1[C@](O)(c1cnc(C(F)(F)F)c(Cl)c1)C(F)(F)F | Dihydroorotate dehydrogenase (quinone), mitochondrial (Rattus norvegicus, UniProt Q63707) | enzyme activity, inhibitor, absorbance |  |  | > 30 µM
NS(=O)(=O)c1cc(NC(=O)Cc2ccc(NC(=O)c3ccc(Br)o3)cc2)ccc1F | CA9 | enzyme activity, inhibitor |  |  | 0.18 µM
O=C1Nc2ccccc2C1=Nc1cccc(Cl)c1 | PIK3CA | enzyme activity, inhibitor, ADP detection |  |  | 0.511 µM
CN(C)CCNC(=O)c1ccc(-c2nc3ccc4[nH]ncc4c3c3c2CCCC3)s1 | FLT3 ITD | enzyme activity, inhibitor |  |  | 0.033 µM
Cn1nccc1[C@]1(CNC(=O)c2cccc(F)c2-c2ccc(C(F)(F)F)cc2)NC(=O)NC1=O | A disintegrin and metalloproteinase with thrombospondin motifs 7 (Homo sapiens, UniProt Q9UKP4) | enzyme activity, inhibitor, FRET |  |  | 0.00445 µM
O=C1C(=Nc2ccccc2I)c2ccccc2N1Cc1cccc(Cl)c1 | PIK3CD | enzyme activity, inhibitor, ADP detection |  |  | 0.366 µM
COc1cc(/C=N/N=C/c2cc(OC)c(OC)c(OC)c2)cc(OC)c1OC | AMY2 | enzyme activity, inhibitor |  |  | 154 µM
Cc1cc(C(=O)N2CCCCC23CCN(C(=O)OC(C)(C)C)C3)ccc1S(N)(=O)=O (stereo not drawn) | CA9 | enzyme activity, inhibitor |  |  | 0.0229 µM
O=C(NCc1cc(O)c(O)c(Br)c1)c1ccc(Cl)c(F)c1 | rep main protease | enzyme activity, inhibitor, FRET |  |  | 1.83 µM
O=C1Nc2cc(C(O)C(=O)O)ccc2Nc2cc(Cl)ccc21 (stereo not drawn) | CHEK1 | enzyme activity, inhibitor |  |  | 6.64 µM
CN(C)C(=O)c1cc2cnc(Nc3ccc(-c4cccc5c(=O)cc(N6CCOCC6)oc45)cc3)nc2n1C1CCCC1 | PIK3CD | enzyme activity, inhibitor, radiometric |  |  | 0.127 µM
O=C1Nc2ccccc2/C1=N/c1ccccc1Br | PIK3CA | enzyme activity, inhibitor, ADP detection |  |  | 0.584 µM
Clc1ccc(C2(c3ccc(-c4ccnc5[nH]ccc45)cc3)CCNCC2)cc1 | LATS2 (Homo sapiens, UniProt Q9NRM7) | enzyme activity, inhibitor, radiometric |  |  | 0.005 µM
COC(=O)Cc1ccc2c(c1)NC(=O)c1ccc(-c3ccc(OC)cc3)cc1N2 | CHEK1 | enzyme activity, inhibitor |  |  | > 10 µM
O=C(NCCN1CCCC1)c1cc(-c2ccc(CN3CCOCC3)cc2)nc2ccc(F)cc12 | Cytochrome P450 3A4 (CYP3A4, Homo sapiens, UniProt P08684) | enzyme activity, inhibitor | human, liver microsomes | with preincubation, midazolam probe | 53 µM and > 100 µM and 87 µM
Cc1ccc2oc(=O)cc(NCCO)c2c1 | ADRA1B (Homo sapiens, UniProt P35368) | calcium signal, antagonist |  |  | 37.2 µM
CNC(=O)c1ccc(C(=O)N2CCN(CC(=O)c3cc(C)n(-c4ccc(S(N)(=O)=O)cc4)c3C)CC2)cc1F | CA9 | enzyme activity, inhibitor |  |  | 0.0676 µM
O=C(NCCN1CCCC1)c1ccc(-c2nc3ccc4[nH]ncc4c3c3c2CCCC3)c(F)c1 | FLT3 ITD | enzyme activity, inhibitor |  |  | 0.041 µM
CC(C)(C)OC(=O)N1CCC(Oc2ccc(C#N)cc2NC(=O)Nc2cnc(C#N)cn2)C1 (stereo not drawn) | CHEK1 | enzyme activity, inhibitor |  |  | 1.53 µM
CC(=O)Nc1ccc(Cn2c(C(=O)Nc3ccc(S(N)(=O)=O)cc3)cc3sccc32)cc1 | CA9 | enzyme activity, inhibitor |  |  | 0.00741 µM
CCCC(=O)NCCCN1CCc2c([nH]c3ccc(Cl)cc23)C1 | SLC6A3 (Homo sapiens, UniProt Q01959, W84C) | transporter uptake, inhibitor |  |  | 9.11 µM
O=c1cc(-c2ccc(O)cc2)oc2c([C@@H]3OC[C@H](O)[C@H](O)[C@H]3O)c(O)c([C@@H]3O[C@H](CO)[C@@H](O)[C@H](O)[C@H]3O)c(O)c12 | CAMK2D (Homo sapiens, UniProt Q13557) | enzyme activity, inhibitor |  |  | 0.21 µM
Nc1ccc(/C=N/N=C/c2ccc(N)cc2)cc1 | AMY2 | enzyme activity, inhibitor |  |  | 266 µM
COc1ccc(COc2cc3c(cc2OC)-c2n[nH]c(-c4ccc(Br)cc4)c2C3)cc1 | CHEK1 | enzyme activity, inhibitor |  |  | > 10 µM
COc1ccc(C(=O)NCc2cc(O)c(O)c(Br)c2)cc1 | rep main protease | enzyme activity, inhibitor, FRET |  |  | 1.17 µM

Excerpt of the above:
SMILES | target | test | system | conditions | IC50
O=C1C(=Nc2ccccc2I)c2ccccc2N1Cc1cccc(Cl)c1 | PIK3CD | enzyme activity, inhibitor, ADP detection |  |  | 0.366 µM
COc1cc(N=C2C(=O)N(Cc3ccccc3)c3ccccc32)cc(OC)c1 | PIK3CD | enzyme activity, inhibitor, ADP detection |  |  | 0.057 µM
Clc1ccc(C2(c3ccc(-c4ccnc5[nH]ccc45)cc3)CCNCC2)cc1 | LATS2 (Homo sapiens, UniProt Q9NRM7) | enzyme activity, inhibitor, radiometric |  |  | 0.005 µM
O=C(NCc1cc(O)c(O)c(Br)c1)c1ccc(Cl)c(F)c1 | rep main protease | enzyme activity, inhibitor, FRET |  |  | 1.83 µM
CC1=NOC(CNC(=O)c2cnc3c(c(C)nn3C)c2Cl)C1 (stereo not drawn) | 60 kDa heat shock protein, mitochondrial (Homo sapiens, UniProt P10809) | ATPase activity, inhibitor |  |  | > 250 µM
CNC(=O)c1ccc(C(=O)N2CCN(CC(=O)c3cc(C)n(-c4ccc(S(N)(=O)=O)cc4)c3C)CC2)cc1F | CA9 | enzyme activity, inhibitor |  |  | 0.0676 µM
Cn1nccc1[C@]1(CNC(=O)c2cccc(F)c2-c2ccc(C(F)(F)F)cc2)NC(=O)NC1=O | A disintegrin and metalloproteinase with thrombospondin motifs 7 (Homo sapiens, UniProt Q9UKP4) | enzyme activity, inhibitor, FRET |  |  | 0.00445 µM
